Experimental data pooled from the literature.
Compare with care: the assays were run in different laboratories. Several values in a cell are separate wells, animals, samples, runs or records. Numbers after ± are the reported error.

CCCCCCCCCCCCCCC(=O)O.O=C1CCCC2C3CCCN4CCCC(CN12)C34 (stereo not shown)  log octanol-water partition coefficient (shake-flask; simulated intestinal fluid; pH 6.8, 37 °C): 0.12
CC(C)C[C@H](NC(=O)[C@H](CCCCN)NC(=O)[C@H](CCC(=O)O)NC(=O)[C@H](C)NC(=O)[C@@H](NC(=O)[C@H](CCCCN)NC(=O)[C@H](CC(=O)O)NC(=O)[C@H](Cc1ccc(O)cc1)NC(=O)[C@H](Cc1ccccc1)NC(=O)[C@H](C)NC(=O)[C@H](CCCCN)NC(=O)[C@H](CC(C)C)NC(=O)[C@H](Cc1c[nH]c2ccccc12)NC(=O)[C@@H](N)CC(=O)O)C(C)C)C(=O)N[C@@H](CCCCN)C(=O)N[C@@H](CCC(=O)O)C(=O)N[C@@H](C)C(=O)N[C@@H](Cc1ccccc1)C(=O)N1CCC[C@H]1C(=O)N[C@@H](CC(=O)O)C(=O)N[C@@H](Cc1c[nH]c2ccccc12)C(=O)N[C@@H](C)C(=O)N[C@@H](CCCCN)C(=O)N[C@@H](C)C(=O)N[C@@H](C)C(=O)N[C@@H](Cc1ccc(O)cc1)C(=O)N[C@@H](CC(=O)O)C(=O)N[C@@H](CCCCN)C(=O)N[C@@H](C)C(=O)N[C@@H](C)C(=O)N[C@@H](CCC(=O)O)C(=O)N[C@@H](CCCCN)C(=O)N[C@@H](C)C(=O)N[C@@H](CCCCN)C(=O)N[C@@H](CCC(=O)O)C(=O)N[C@@H](C)C(=O)N[C@@H](C)C(=O)O  Tmax (cynomolgus monkey, male, plasma; IV infusion, 75 mg/kg/dose, day 1, 30 min infusion, end of infusion 0 h): 1 h
COc1cc(NC(=O)C(=O)c2c(C)n(Cc3ccc(Cl)cc3)c3ccc(C)cc23)ccn1  Tmax (male cynomolgus monkey, plasma; oral, 10 mg/kg): 2 h and 4 h
[2H]C([2H])([2H])C([2H])([2H])C([2H])([2H])OC(C(=O)OC1CCNCC1)(c1ccccc1)c1ccccc1  Cmax (healthy Japanese male subjects, plasma; oral, 15 mg once daily, day 16, fed, mean): 0.157 µg/mL
CNC(=O)Oc1cc(C)c(S(C)(=O)=O)c(C)c1  percent metabolized (human liver cytosol; 1 µM, 30 min, 1 mg/mL protein): 67.6%
CC(=O)[O-].F[P-](F)(F)(F)(F)F.[Co+2].c1ccc(CN2CCCN3CCN(CCCN(Cc4ccccc4)CC3)CC2)cc1  peak separation (cyclic voltammetry, measured: first Co2+/Co3+ couple; acetonitrile): 167 mV
[CH3][Ti+2][O]C(=O)c1ccc([S][Au][PH](c2ccccc2)(c2ccccc2)c2ccccc2)cc1.c1cc[cH-]c1.c1cc[cH-]c1  MTD (C57BL/6 mice; 7 days): 5 mg/kg/day
CC[C@H](C)C(=O)N1CCC(NC(=O)Nc2ccc(OC(F)(F)F)c(F)c2)CC1  CL/F (human, plasma; oral, 8 mg, single dose, fed, healthy volunteers): 1.91 L/h
CSCC[C@@H]1NC(=O)[C@@H]2CSSC[C@H](NC(=O)[C@H](CO)NC(=O)[C@H](C)N)C(=O)N[C@@H](CCCNC(=N)N)C(=O)N[C@@H]([C@@H](C)O)C(=O)N3CCC[C@H]3C(=O)N[C@@H](CCCCN)C(=O)N[C@@H](CC(=O)O)C(=O)N[C@H]3CSSC[C@H](NC(=O)[C@H](CCCCN)NC(=O)[C@H](CCCNC(=N)N)NC(=O)[C@H](CC(N)=O)NC1=O)C(=O)N[C@@H](CCCCN)C(=O)N[C@H]1CSSC[C@H](NC(=O)[C@@H]4CCCN4C(=O)[C@H](CC(=O)O)NC(=O)[C@H](C)NC3=O)C(=O)N[C@@H](C)C(=O)N[C@@H](CCCCN)C(=O)N[C@@H](CCC(=O)O)C(=O)N[C@@H]([C@@H](C)O)C(=O)NCC(=O)N[C@@H](CSSC[C@@H](C(N)=O)NC(=O)[C@H](CCCNC(=N)N)NC(=O)[C@H](CC(N)=O)NC1=O)C(=O)N1CCC[C@H]1C(=O)N[C@@H](Cc1ccc(O)cc1)C(=O)NCC(=O)N[C@@H](CCCCN)C(=O)N2  albumin/globulin ratio (DA rat, pristane-induced arthritis, serum; subcutaneous, 0.1 mg/kg once weekly, end of 21-day trial): 3.24
N=C(N)NCc1ccc(C(=O)NCCCC[C@H](NC(=O)N[C@@H](CCC(=O)O)C(=O)O)C(=O)O)cc1[211At]  tissue uptake (SCID mouse, PC-3 xenografts, spleen; 2 h): 6.81 ± 3.2 %ID/g
NC(=O)[C@@H](CCCCNC(=O)CNC(=O)CCC(=O)NCCc1c[nH]cn1)NC(=O)[C@@H](Cc1ccc(O)cc1)NC(=O)[C@@H](CCCCNC(=O)CNC(=O)CCC(=O)NCCc1c[nH]cn1)NC(=O)Cc1ccc(CN2CCN(CC(=O)O)CCN(CC(=O)O)CC2)cc1 [fluorine-18 labelled]  tissue ratio (tumour-bearing nude mice; intravenous, 3 h, TF2 pretargeting; relative to: tumour over liver): 189 ± 43
CC(C)C1=C(OC(=O)CCc2ccccc2)C(=O)C2=C(C=C[C@H]3C(C)(C)CCC[C@]23C)C1=O  mortality (Artemia salina, artificial seawater; 100 ppm, 24 h): 13.6%
C#Cc1c(F)ccc2cc(O)cc(-c3ncc4c(N5CC6CCC(C5)N6C(=O)OCCCCC)nc(OC[C@@]56CCCN5C[C@H](F)C6)nc4c3F)c12  parent drug release (mouse whole blood; 60 min): not detected
Cc1cccc(-c2cccc(C)n2)n1.[Cl-].[Cl-].[Ru+2].c1ccc(-c2ccccn2)nc1.c1ccc(-c2ccccn2)nc1  photoactivation half-life (UV/Vis; PBS; concentration not given): 15.1 ± 0.7 s
COC(=O)C[C@](O)(CCCC(C)(C)OC(C)=O)C(=O)O[C@@H]1C(OC)=C[C@]23CCCN2CCc2cc4c(cc2[C@H]13)OCO4  tissue concentration (CD1 mouse, large intestine; oral, 1 mg/kg, 8 h): 16.8 ng/mL
CC(COC(=O)c1ccccc1)OC(=O)C(N)Cc1ccccc1 (mixture of isomers)  half-life (pH 6 or lower): > 30 h
CC[C@H](C)[C@@H]1NC(=O)[C@H](CCCCN)NC(=O)[C@H](CCCCN)NC(=O)[C@H](Cc2ccc(O)cc2)NC(=O)[C@H](CC(C)C)NC(=O)[C@@H]2CCCN2C(=O)CNC(=O)CNC(=O)[C@@H](NC(=O)CN)CSSC[C@@H](C(=O)N[C@@H](CCCCN)C(=O)N[C@@H](CO)C(N)=O)NC(=O)[C@H](CC(C)C)NC(=O)[C@H](CCCCN)NC(=O)[C@H](CCCCN)NC(=O)[C@H]([C@@H](C)CC)NC(=O)[C@H]([C@@H](C)CC)NC(=O)[C@H](CCCCN)NC(=O)[C@H](CCCCN)NC(=O)[C@H](Cc2ccc(O)cc2)NC(=O)[C@H](CC(C)C)NC(=O)[C@@H]2CCCN2C(=O)[C@H](C)NC(=O)CNC(=O)CNC(=O)[C@H](CO)NC(=O)CNC(=O)CNC(=O)[C@H](CO)NC(=O)[C@H](CCCCN)NC(=O)[C@H](CC(C)C)NC(=O)[C@H](CC(C)C)NC(=O)[C@H](CCCCN)NC(=O)[C@H](CCCCN)NC(=O)[C@H]([C@@H](C)CC)NC1=O  remaining intact peptide (25% human serum; 50 µM, 24 h; relative to: 0 h control): 0%
CSCC[C@H](NC(=O)CNC(=O)[C@H](CCCCN)NC(=O)[C@H](CC(C)C)NC(=O)[C@@H]1CCCN1C(=O)[C@H](CO)NC(=O)[C@H](Cc1c[nH]cn1)NC(=O)[C@H](Cc1c[nH]c2ccccc12)NC(=O)[C@H](CCCNC(=N)N)NC(=O)[C@H](CC(C)C)NC(=O)[C@H](CCCNC(=N)N)NC(=O)[C@H](Cc1c[nH]c2ccccc12)NC(=O)[C@H](CS)NC(=O)CCCCCNC(=O)CN1CCN(CC(=O)O)CCN(CC(=O)O)CCN(CC(=O)O)CC1)C(=O)O [copper-64 labelled]  intact tracer remaining (radio-HPLC; mouse serum; 2 h, 37 °C): 91.9%
[3H]c1sc(C)nc1C=C(C)C1CC2C(CCCC(C)C(O)C(C)C(=O)C(C)(C)C(O)CC(=O)O1)N2CCO (stereo not shown)  tissue concentration (LC-MS/MS; CD2F1 mice tumour-bearing, heart; intravenous, 2.2 nmol/kg, 24 h): 330 ± 70 ng/g
CCN1CCCC1CNC(=O)c1cc(Br)cc(OC)c1O[11CH3] (stereo not shown)  k2 tissue-to-plasma efflux (PET; rhesus monkey, brain, mean of regions): 0.18 min⁻¹
CN(C)C(CNC(=O)Nc1cc(C(F)(F)F)ccc1N1CCOCC1)c1ccncc1 (stereo not shown)  creatine kinase (mouse, serum; intraperitoneal, 180 mg/kg single dose): 8140 U/L
COc1ccc(NC(=O)Cn2c(=O)c3ccccc3n(CC(=O)Nc3cc([125I])c(OC)cc3OC)c2=O)cc1  tracer uptake (rat, spleen; intravenous, 30 min): 0.06 %ID/g
